{"data": "Measured values from different studies", "note": "Protocols differ between the studies behind these lines. ± gives the spread as reported."}
{"SMILES": "CCCC[C@@H]1NC(=O)[C@@H](NC(=O)[C@H](CCC(=O)O)NC(=O)CNC(=O)CN2CCN(CC(=O)O)CCN(CC(=O)O)CCN(CC(=O)O)CC2)CCCCNC(=O)C[C@@H](C(N)=O)NC(=O)[C@H](C(C)C)NC(=O)[C@@H]2CCCN2C(=O)[C@H](CCCNC(=N)N)NC(=O)CNC(=O)[C@H](Cc2c[nH]c3ccccc23)NC(=O)[C@H](CCCNC(=N)N)NC(=O)[C@@H](Cc2ccccc2)NC(=O)[C@H](Cc2c[nH]cn2)NC(=O)[C@H](CCC(=O)O)NC1=O [gallium-67 labelled]", "test system": "C57 mice, B16/F10 lung metastases, stomach", "conditions": "intravenous, 0.037 MBq/mouse, 4 h", "tissue uptake [%ID/g]": "0.18 ± 0.13"}
{"SMILES": "CCCC[C@H](NC(=O)CNC(=O)CNC(=O)CN1CCN(CC(=O)O)CCN(CC(=O)O)CCN(CC(=O)O)CC1)C(=O)N[C@H]1CC(=O)NCCCC[C@@H](C(N)=O)NC(=O)[C@H](Cc2c[nH]c3ccccc23)NC(=O)[C@H](CCCNC(=N)N)NC(=O)[C@@H](Cc2ccccc2)NC(=O)[C@H](Cc2c[nH]cn2)NC1=O [gallium-67 labelled]", "test system": "female C57 mice, B16/F1 melanoma, spleen", "conditions": "intravenous, 0.037 MBq, 24 h", "tissue uptake [%ID/g]": "0.52 ± 0.16"}
{"SMILES": "O=C([O-])CN1CCN(CC(=O)[O-])CCN(CC(=O)NCCc2ccc3c(c2)C2C=CCC2C(c2cc4c(cc2Br)OCO4)N3)CCN(CC(=O)[O-])CC1.[111In+3] (centres unmarked)", "test system": "mice with Hec50 tumour xenograft, kidneys", "conditions": "2 h, with: G-1 5 µg blocking", "tissue uptake [%ID/g]": "1 ± 0.16"}
{"SMILES": "CCCC[C@H](NC(=O)CNC(=O)CNC(=O)CN1CCN(CC(=O)O)CCN(CC(=O)O)CC1)C(=O)N[C@H]1CC(=O)NCCCC[C@@H](C(N)=O)NC(=O)[C@H](Cc2c[nH]c3ccccc23)NC(=O)[C@H](CCCNC(=N)N)NC(=O)[C@@H](Cc2ccccc2)NC(=O)[C@H](Cc2c[nH]cn2)NC1=O [gallium-67 labelled]", "test system": "female C57 mice, B16/F1 melanoma, lung", "conditions": "intravenous, 0.037 MBq, 4 h", "tissue uptake [%ID/g]": "0.3 ± 0.1"}
{"SMILES": "O=C([O-])c1cccc(CN(CCN(Cc2cn(Cc3ccccc3)nn2)Cc2cccc(C(=O)[O-])n2)Cc2cn(Cc3ccccc3)nn2)n1.[64Cu+2]", "test system": "healthy athymic nude mice, kidney", "conditions": "intravenous, 4 h", "tissue uptake [%ID/g]": 6.98}
{"SMILES": "CN1C(=O)[C@@H](Cc2ccc(O)c(I)c2)NC(=O)CNC(=O)[C@H](Cc2ccc3ccccc3c2)NC(=O)[C@H](CCCNC(=N)N)NC(=O)[C@H]1CCCNC(=O)c1ccc(CNC(=O)CN2CCN(CC(=O)O)CCN(CC(=O)O)CCN(CC(=O)O)CC2)cc1 [lutetium-177 labelled]", "assay": "measured: 177Lu radioactivity", "test system": "female CB-17 SCID mice, Daudi xenograft, pancreas", "conditions": "intravenous, 0.16 nmol per mouse, 48 h", "tissue uptake [%ID/g]": "0.08 ± 0.01"}
{"SMILES": "NC12CNCCNCC(NCc3ccc(CNC(=O)CCCC(=O)NCc4ccc(-c5nncnn5)cc4)cc3)(CNCCNC1)CNCCNC2.[64Cu+2]", "test system": "athymic nude mice SW1222 xenograft, blood", "conditions": "4 h post injection, 48 h accumulation interval, with: huA33-TCO pretargeting", "tissue uptake [%ID/g]": "1.78 ± 0.28"}
{"SMILES": "O=C([O-])CN1CCN(CC(=O)[O-])CCN(CC(=O)[O-])CCN(CC(=O)[O-])CC1.[64Cu+2]", "test system": "healthy athymic nude mice, spleen", "conditions": "intravenous, 4 h", "tissue uptake [%ID/g]": 0.69}
{"note": "For quick reference, copied from above:"}
{"SMILES": "CCCC[C@H](NC(=O)CNC(=O)CNC(=O)CN1CCN(CC(=O)O)CCN(CC(=O)O)CC1)C(=O)N[C@H]1CC(=O)NCCCC[C@@H](C(N)=O)NC(=O)[C@H](Cc2c[nH]c3ccccc23)NC(=O)[C@H](CCCNC(=N)N)NC(=O)[C@@H](Cc2ccccc2)NC(=O)[C@H](Cc2c[nH]cn2)NC1=O [gallium-67 labelled]", "test system": "female C57 mice, B16/F1 melanoma, lung", "conditions": "intravenous, 0.037 MBq, 4 h", "tissue uptake [%ID/g]": "0.3 ± 0.1"}
